Values quoted from earlier work that unrelated publications cite.
Chain of UniProt Q86UX6 (whole entry, looked up): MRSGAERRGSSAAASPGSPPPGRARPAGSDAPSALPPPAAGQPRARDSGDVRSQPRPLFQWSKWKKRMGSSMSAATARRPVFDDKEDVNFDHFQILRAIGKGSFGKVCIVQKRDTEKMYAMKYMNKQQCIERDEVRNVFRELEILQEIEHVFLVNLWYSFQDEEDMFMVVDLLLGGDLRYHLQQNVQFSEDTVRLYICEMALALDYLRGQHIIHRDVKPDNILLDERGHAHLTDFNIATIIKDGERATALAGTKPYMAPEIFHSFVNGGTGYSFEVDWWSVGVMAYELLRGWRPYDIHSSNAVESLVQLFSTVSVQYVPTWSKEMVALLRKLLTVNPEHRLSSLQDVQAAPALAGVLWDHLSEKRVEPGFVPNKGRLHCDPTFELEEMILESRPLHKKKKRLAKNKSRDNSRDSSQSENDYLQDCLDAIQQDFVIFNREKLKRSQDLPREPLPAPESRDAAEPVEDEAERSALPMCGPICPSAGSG

| Compound | target or system | test | test system | setting | how to read | measurement | result |
| --- | --- | --- | --- | --- | --- | --- | --- |
| c1ccc2c(c1)ccc1c3ccccc3ccc21 | – | – | – | experimental mean | – | log Kow | 5.81 |
| O=C(O)CN(CC(=O)O)[C@H]1CCCC[C@@H]1N(CC(=O)O)Cc1ccccn1 | – | – | – | – | – | log K HL protonation constant | 10.2 |
| O=C(O)CN1CCNCCN(CC(=O)O)CCNCC1 | – | – | 0.1 M KCl | – | – | log KH2 | 9.75 |
| C[Si]1(C)O[Si](C)(C)O[Si](C)(C)O[Si](C)(C)O[Si](C)(C)O[Si](C)(C)O1 | – | – | – | – | – | log Kow | 8.87 |
| C[Si](C)(C)O[Si](C)(C)O[Si](C)(C)C | – | – | dry 1-octanol/air | 25 °C | – | log KOA | 3.77 |
| c1ccc2c(c1)ccc1ccccc12 | – | – | – | experimental mean or OPERA estimate | – | log Kow | 4.46 |
| C[C@]12CCC(=O)C=C1CC[C@@H]1[C@@H]2[C@@H](O)C[C@@]2(C)[C@H]1CC[C@]2(O)C(=O)CO | – | – | – | – | – | log KOA | > 5 |
| C[Si]1(C)O[Si](C)(C)O[Si](C)(C)O[Si](C)(C)O[Si](C)(C)O1 | – | – | 1-octanol/water | 25 °C | – | log KOW | 8.07 |
| C#C[C@]1(O)CC[C@H]2[C@@H]3CCc4cc(O)ccc4[C@H]3CC[C@@]21C | – | – | n-octanol/water | – | – | log Kow | 4.15 |
| C[Si](C)(C)O[Si](C)(C)C | – | vapour pressure over solubility | – | 25 °C | – | log KAW | 2.6 |
| Nc1cc(C(F)(F)F)c(-c2nc(N3CCOCC3)nc(N3CCOCC3)n2)cn1 | STK32C (Homo sapiens, UniProt Q86UX6) | enzyme activity | – | 10 µM | relative to: untreated | remaining activity | 79% |

Some of these lines once more:
| Compound | target or system | test | test system | setting | how to read | measurement | result |
| --- | --- | --- | --- | --- | --- | --- | --- |
| c1ccc2c(c1)ccc1ccccc12 | – | – | – | experimental mean or OPERA estimate | – | log Kow | 4.46 |
| C[C@]12CCC(=O)C=C1CC[C@@H]1[C@@H]2[C@@H](O)C[C@@]2(C)[C@H]1CC[C@]2(O)C(=O)CO | – | – | – | – | – | log KOA | > 5 |
